# Experimental data of several laboratories.
# Compare with care: the assays were run in different laboratories. Several values in a cell are separate wells, animals, samples, runs or records. ± gives the spread as reported.
SMILES,tested on,assay,test system,setting,how to read,endpoint,value
C[n+]1cccc2cc(C=NNC(=O)c3ccc4ccc5ccc(C(=O)NN=Cc6ccc7c(ccc[n+]7C)c6)nc5c4n3)ccc21.[I-].[I-],telomeric G4 DNA hybrid-2,FRET melting,,"1 µM, DNA 0.2 µM, with: duplex DNA competitor 10 µM",,ΔTm,34.9 ± 0.6 °C
CC(C)n1ccnc1CN1CCN(Cc2nccn2C(C)C)CCN(Cc2nccn2C(C)C)CC1,Zn2+,potentiometric titration,,"pH 7.4, ligand and metal 2 mM",,pZn,> 12.8
COc1nc(NCc2cn(-c3ccc(C(=O)Nc4ccccc4)cc3)nn2)nc(OC)n1,calf thymus DNA,"DNA damage, Tb3+ fluorescence",,24 h,,limit of quantification,8.88 nM
CN1CCN(CCNCc2cc3cc(-c4ccccc4)ccc3nc2SCc2ccccc2)CC1,electron transport chain,"proton pumping, ACMA quenching",Pseudomonas aeruginosa inverted membrane vesicles,"32 µg/mL, with: NADH",,inhibition,85%
C[N+](C)(C)Cc1cccc(N=Nc2cccc(C[N+](C)(C)C)c2)c1,frog,,atrial fibres,micromolar,,slow inward current,increased
c1coc(-c2n[nH]cc2-c2ccnc3ccccc23)c1,CDC15 (Candida albicans),"kinase binding, MIB/MS competition",Candida albicans lysate,10 µM,reference: DMSO,log2 fold change,-0.09
COc1ccc2c(c1)N(C[C@H](C)CN(C)C)c1ccccc1S2,H+/organic cation antiporter,cell uptake,hCMEC/D3,,,Km,9.7 µM
C=C1CC(C(=O)Nc2cc(C(=O)NC)cc(-c3ccc(C(C)=O)s3)c2OC)C1,TREM2 (human),"reporter gene, agonist, NFAT luciferase reporter",Jurkat-NFAT cells overexpressing TREM2,"25 µM, 4 h",reference: control,luciferase activity,~240%
CCCCN1CCCCC1C(=O)Nc1c(C)cccc1C (stereo not shown),H+/organic cation antiporter,cell uptake,hCMEC/D3,,,Km,92.8 µM
c1ccc(CSc2nc3ccc(-c4ccccc4)cc3cc2CNCCC2CCN(C3CCCC3)CC2)cc1,electron transport chain,"proton pumping, ACMA quenching",Pseudomonas aeruginosa inverted membrane vesicles,"32 µg/mL, with: NADH",,inhibition,82%
CC(C)COc1ccc(CNC(=O)N(Cc2ccc(F)cc2)C2CCN(C)CC2)cc1,human seizure ion channel panel,"ion current, automated patch clamp",,,,lowest IC30 across channels,0.561 µM
Brc1ccc2nc(SCc3ccccc3)c(CNCc3ccc(CN4CCCC4)cc3)cc2c1,electron transport chain,"proton pumping, ACMA quenching",Pseudomonas aeruginosa inverted membrane vesicles,"2 µg/mL, with: NADH",,inhibition,30%
C=CCN1C[C@H](C(=O)N(CCCN(C)C)C(=O)NCC)C[C@@H]2c3cccc4[nH]cc(c34)C[C@H]21,H+/organic cation antiporter,cell uptake,hCMEC/D3,,,Vmax,6030 pmol/min/mg protein
CCS(=O)(=O)c1nc(C2CC2)cc(C(F)(F)F)n1,importin alpha/beta-1,"cMyc nuclear import, high content imaging",HeLa Kyoto reporter,"0.05 µM, 2 h",,cells with nuclear reporter,91.7% and 69.1% and 96.1% and 95%
O=C(CCCN1CCC(O)(c2ccc(Cl)cc2)CC1)c1ccc(F)cc1,H+/organic cation antiporter,cell uptake,hCMEC/D3,,,Vmax,1840 pmol/min/mg protein
COC1=C(OC)C(=O)C(CC=C(C)C)=C(C)C1=O,FSP1 F354A mutant,substrate,,with: 100 µM co-substrate,,kcat,10.1 ± 1.34 s⁻¹
CC(Nc1nc(N2CCCC2)nc2ccccc12)c1ccccc1 (stereo not shown),transportin-1/2,"FUS nuclear import, high content imaging",HeLa Kyoto reporter,"1 µM, 2 h",,cells with nuclear reporter,94.6%
CCCCNc1ccc(C(=O)OCCN(C)C)cc1,H+/organic cation antiporter,cell uptake,hCMEC/D3,,,Vmax,2430 pmol/min/mg protein
c1ccc(CSc2nc3ccccc3cc2CNCc2ccc(CN3CCCC3)cc2)cc1,electron transport chain,"proton pumping, ACMA quenching",Pseudomonas aeruginosa inverted membrane vesicles,"2 µg/mL, with: NADH",,inhibition,8%
O=S(=O)(NCCNC/C=C/c1ccc(Br)cc1)c1cccc2cnccc12,PKA,inhibitor,mouse zygotes,"20 µM, injection, hCG, 72 h post, early embryonic development",,embryos arrested at zygote stage,0%
CC[S+]([O-])c1nc(-c2ccccc2)cc(C(F)(F)F)n1 (stereo not shown),importin alpha/beta-1,"cMyc nuclear import, high content imaging",HeLa Kyoto reporter,"0.5 µM, 2 h",,cells with nuclear reporter,92.2% and 81.9% and 80.1% and 80.3%
CN(C)CCOC(C)(c1ccccc1)c1ccccn1 (stereo not shown),H+/organic cation antiporter,cell uptake,hCMEC/D3,,,Vmax,604 pmol/min/mg protein
Nc1ncnc2c1ncn2[C@@H]1O[C@H](COP(=O)(O)OP(=O)(O)OP(=O)(O)O)[C@@H](O)[C@H]1O,P2Y receptor,"calcium response, fura-2 imaging",16HBE14o- cells,2.5 µM,,responding cells,62.3 ± 11.5%
COc1cc2cc(CNCCC3CCN(C4CCCC4)CC3)c(SCc3ccccc3)nc2c(OC)c1OC,electron transport chain,"proton pumping, ACMA quenching",Pseudomonas aeruginosa inverted membrane vesicles,"32 µg/mL, with: NADH",,inhibition,82%
COc1cc2c(cc1OC)C(=O)C(CC1CCN(Cc3ccccc3)CC1)C2 (stereo not shown),human seizure ion channel panel,"ion current, automated patch clamp",,,,lowest IC30 across channels,16.3 µM
Oc1ccccc1-c1n[nH]cc1-c1ccnc2ccccc12,DUN1 (Candida albicans),"kinase binding, MIB/MS competition",Candida albicans lysate,10 µM,reference: DMSO,log2 fold change,0.1
COC(=O)C1=C(C)NC(C)=C(C(=O)OC)C1c1ccccc1[N+](=O)[O-],human seizure ion channel panel,"ion current, automated patch clamp",,,,lowest IC30 across channels,22.1 µM
CC(C)c1cn(C(C)C)c(CN2CCN(Cc3nc(C(C)C)cn3C(C)C)CCN(Cc3nc(C(C)C)cn3C(C)C)CC2)n1,Zn2+,potentiometric titration,,,reference: Zn2+ over Mn2+,stability constant difference,≥ 9 orders of magnitude
COc1cccc2c1C(=O)c1c(O)c3c(c(O)c1C2=O)C[C@@](O)(C(=O)CO)C[C@@H]3O[C@H]1C[C@H](N)[C@H](O)[C@H](C)O1,calf thymus DNA,"DNA damage, Tb3+ fluorescence",,24 h,,limit of detection,0.76 nM
CC(C)C[C@H](NC(=O)C[C@H](O)[C@H](CC(C)C)NC(=O)[C@H](Cc1c[nH]cn1)NC(=O)CNC(=O)[C@@H](NC(=O)[C@H](C)NC(=O)[C@H](Cc1c[nH]c2ccccc12)NC(=O)[C@H](CCC(N)=O)NC(=O)[C@@H](Cc1ccccc1)NC(=O)COCCOCCNC(=O)CN1CCN(CC(=O)O)CCN(CC(=O)O)CCN(CC(=O)O)CC1)C(C)C)C(N)=O [lutetium-177 labelled],,,"female BALB/c nu/nu mice, kidneys","intravenous, 50 pmol, 1 h",,tissue uptake,3.4 ± 0.5 %ID/g
CC12CC3CC(C)(C1)CC(N)(C3)C2,human seizure ion channel panel,"ion current, automated patch clamp",,,,lowest IC30 across channels,1.78 µM
CC(=O)ON=C1C=CC(=C(C#N)c2ccccc2)C=C1,Leishmania major CK1,"enzyme activity, inhibitor, ADP-Glo",,"20 µM, about MIC, with: ATP 10 µM",,remaining activity,98%
c1ccc(CSc2nc3ccc(-c4ccccc4)cc3cc2CNCc2ccc(CN3CCCC3)cc2)cc1,electron transport chain,"proton pumping, ACMA quenching",Pseudomonas aeruginosa inverted membrane vesicles,"32 µg/mL, with: NADH",,inhibition,97%
COc1ccc2c(c1)c(CC(=O)O)c(C)n2C(=O)c1ccc(Cl)cc1,human seizure ion channel panel,"ion current, automated patch clamp",,,,lowest IC30 across channels,> 30 µM
O=C(Nc1ccc(Cl)cc1)Nc1ccc(Cl)c(Cl)c1,camel nanobody T2,"binding, competitive ELISA",,concentration not given,,cross-reactivity,< 0.1%
Cc1cc(NS(=O)(=O)c2ccc(NC(=O)/C(C#N)=C/c3ccc(N4CCCCC4)cc3)cc2)no1,calf thymus DNA,UV-vis titration,,"30 µM, with: DNA 0 to 90 µM",,hypochromism,~39%
Cn1cc(-c2ccc(-c3cncc(Cl)c3N3CCC4(CCNC4=O)CC3)cc2)cn1,COLO 205,"gene expression, microarray, measured: CLHC1 mRNA",,"concentration not given, 6 h",reference: untreated cells,log2 fold change,1.54
CCCCCCCC(=O)OC[C@H](COP(=O)(O)O[C@@H]1[C@H](O)[C@H](O)[C@@H](OP(=O)(O)O)[C@H](OP(=O)(O)O)[C@H]1O)OC(=O)CCCCCCC,Kv7.2/Kv7.3(EEE) mutant channel,"channel open probability, activator, fitted PIP2 binding model",,"model 5, efficacy fixed to wild type",reference: channel without bound PIP2,efficacy factor E1,3.99
CCN(CC)CCNC(=O)c1c(C)[nH]c(/C=C2\C(=O)Nc3ccc(F)cc32)c1C,PKG1β (human),"kinase activity, inhibitor",,10 µM,,inhibition,72%
CCCNC(C)C(=O)Nc1c(C)csc1C(=O)OC (stereo not shown),H+/organic cation antiporter,cell uptake,hCMEC/D3,,,Vmax,364 pmol/min/mg protein
COc1nc(NCc2cn(-c3ccc(C(=O)Nc4ccc(C(F)(F)F)cc4)cc3)nn2)nc(OC)n1,calf thymus DNA,"DNA damage, Tb3+ fluorescence",,24 h,,limit of quantification,6.24 nM
O=C(O[C@H]1CN2CCC1CC2)N1CCc2ccccc2[C@@H]1c1ccccc1,H+/organic cation antiporter,cell uptake,hCMEC/D3,,,Km,11.8 µM
C[C@@H]1CC[C@H]2[C@@H](/C1=C/C[C@H]1[C@]3(C)CCC(=O)C(C)(C)O[C@H]3CC[C@]1(C)O)C(C)(C)CC[C@]2(C)O,P-glycoprotein human,inhibitor,KB-C2,"10 µM, 2 h, with: [3H]-paclitaxel",reference: untreated,intracellular paclitaxel accumulation,2.36 fold
